Experimental data gathered from unrelated publications.
Converted amounts (≈) assume the structure as drawn.

SMILES	organism	assay	test system	setting	scale	measurement	value
O=C(Nc1ccc(N2CCCN(C(=O)c3cnccn3)CC2)nc1)c1ccc(Br)cc1Cl	Mycobacterium tuberculosis	bacterial growth	H37Ra-lux	168 h		IC90	> 64 µM
COc1cccc2c1OCCCn1cc(nn1)CCN(Cc1ccc(C)s1)CCNC(=O)[C@H](Cc1ccccc1)NC2=O	Lassa mammarenavirus	viral replication	Huh-7	concentration not given		Emax	89.4%
CCCCN(CCCNC(=O)c1cc(Nc2ccc(OC)c(OC)c2)nc2ccccc12)Cc1ccccc1	SARS-CoV-2	cytopathic effect	USA_WA1/2020	round 2, 5-point		maximum response	60%
Nc1nc(Nc2ccc3c(c2)CC[C@@H](N2CCCC2)CC3)nn1-c1cc2c(nn1)-c1ccccc1CCC2	SARS-CoV-2	viral replication, GFP plate reader screen	BetaCov/Belgium/GHB-03021/2020	cell-based		EC50	1.78 µM
CNC(=O)[C@@H](NC(=O)[C@H](CC(C)C)[C@H](O)C(=O)NO)C(C)(C)C	Daboia russelii		C2C12	100 µM, with: Daboia russelii venom PB	baseline: venom alone	viability difference	-18.7%
O=C(Nc1ncc(Cc2ccccc2)s1)C1CCCC1	Histoplasma capsulatum	microbial growth				MIC	5 µM (≈ 1.43 µg/mL)
CC(=O)Nc1ccc2nc(-c3[nH]cnc3-c3ccccc3)ccc2c1	Lassa mammarenavirus	viral replication	Huh-7	10 µM, 72 h		remaining activity	47%
COc1ccc(C[C@@H]2c3cc(Oc4cc(C[C@@H]5c6cc(O)c(OC)cc6CCN5C)ccc4O)c(OC)cc3CCN2C)cc1	SARS-CoV-2	cytopathic effect	Vero E6	100 µM, replicate run		inhibition	75%
CCCc1cnc(C)nc1N1C[C@@H]2NC(=O)CN(CCOC)C(=O)CCc3ccc(OC)c(c3)Oc3cccc(c3)CO[C@H]2C1	Lassa mammarenavirus	viral replication	Huh-7	concentration not given		Emax	60.4%
Cc1ccc(-c2nc(C[S+]([O-])CC(=O)N3CCN(c4ccc(Cl)cc4)CC3)c(C)o2)cc1 (centres unmarked)	SARS-CoV-2	cytopathic effect, cell-based CPE	USA_WA1/2020	round 1, 5-point dilution		AC50	3.55 µM
COc1ccc2nc3c(c(N)c2c1)CCCC3	SARS-CoV-2	viral replication, GFP plate reader screen	BetaCov/Belgium/GHB-03021/2020	cell-based		EC50	11.5 µM
CCc1c(C(=O)C(N)=O)c2c(OCC(=O)O)cccc2n1Cc1ccccc1	Daboia russelii		C2C12	100 µM, with: Daboia russelii venom RJ	baseline: venom alone	viability difference	-25.3%
COc1ccc(C[C@@H]2NC(=O)[C@@H](NC(=O)c3ccc(S(C)(=O)=O)cc3)Cc3ccc(cc3)OC[C@H](CC(C)C)NC(=O)CN(CC3CC3)C(=O)[C@@H](C)NC2=O)cc1	Lassa mammarenavirus	viral replication	Huh-7	concentration not given		Emax	19.4%
CNCc1ccc(C)c(NC(=O)c2ccc(Nc3nc(-c4ccccc4)c4ccccc4n3)cc2)c1	SARS-CoV-2	viral replication, GFP plate reader screen		cell-based		EC50	2.95 µM
CNC(=NCCSCc1csc(N=C(N)N)n1)NC#N	Ebola virus Zaire	pseudovirus entry	A549		baseline: CC50 over IC50	selectivity index	1
Cn1c(=O)ccc2ccc(F)c(CCNC[C@H]3CN(c4cnc5c(n4)NC(=O)CO5)C(=O)O3)c21	Burkholderia mallei	microbial growth				MIC50	0.25 mg/L (≈ 0.534 µM)
CNCc1cc(-c2ccc(C)c3ncccc23)ccc1OC	Lassa mammarenavirus	viral replication	Huh-7	10 µM, 72 h		remaining activity	33%
COC(=O)[C@H]1[C@H]2C[C@@H]3c4[nH]c5ccccc5c4CCN3C[C@H]2C[C@@H](OC(=O)c2cc(OC)c(OC)c(OC)c2)[C@@H]1OC	SARS-CoV-2	viral replication, GFP plate reader screen	BetaCov/Belgium/GHB-03021/2020	cell-based		EC50	> 20 µM
Cc1ccc(Cn2cnc(-c3ccccc3)c2-c2nccn2C)c(F)c1F	Lassa mammarenavirus	viral replication	Huh-7	10 µM, 72 h		remaining activity	37%

SMILES	organism	assay	test system	setting	scale	measurement	value
O=C(Nc1ccc(N2CCN(C(=O)c3cnccn3)CC2)nc1)c1ccccc1	Mycobacterium tuberculosis	bacterial growth	H37Ra-lux	168 h		IC90	3.73 µM
COc1ccc2cc1Oc1ccc(cc1)C[C@H]1c3c(cc4c(c3Oc3cc5c(cc3OC)CCN(C)[C@@H]5C2)OCO4)CCN1C	African swine fever virus			concentration not given		p72 mRNA and protein	inhibited
Clc1ccc(CN2CCN(Cc3c[nH]c(CC4CCCC4)n3)CC2)cc1	Lassa mammarenavirus	viral replication	Huh-7	10 µM, 72 h		remaining activity	31%
CCn1c2ccccc2c2cc(CN3CCN(Cc4cccc(Cl)c4)CC3)ccc21	SARS-CoV-2	cytopathic effect, cell-based CPE	USA_WA1/2020	round 2, 5-point dilution		AC50	12.6 µM
Nc1ncnc2c([C@@H]3N[C@H](CO)[C@@H](O)[C@H]3O)c[nH]c12	Sudan ebolavirus	viral replication	HeLa, Boniface	1.6 µM		inhibition	6.4%
COc1ccc(N2CCN(CCCNC(=O)c3cc(Nc4ccc(OC)cc4OC)nc4ccccc34)CC2)cc1	SARS-CoV-2	cytopathic effect, cell-based CPE	USA_WA1/2020			AC50	14.1 µM
CCCCCCCCCCCCN(C)C(=O)CP(=O)(O)O	Bacillus anthracis		Ames/FL			MIC90	0.049 mg/L (≈ 0.152 µM)
COc1cccc2c1C(=O)c1c(O)c3c(c(O)c1C2=O)C[C@@](O)(C(=O)CO)C[C@@H]3O[C@H]1C[C@H](N)[C@H](O)[C@H](C)O1	SARS-CoV-2	viral replication, GFP plate reader screen		cell-based		EC50	8.04 µM
COc1cccc(CNC(=O)C2CCN(Cc3cc4ccccc4n3Cc3ccccc3)CC2)c1OC	SARS-CoV-2	cytopathic effect, cell-based CPE	USA_WA1/2020	round 2, 5-point dilution		AC50	12.6 µM
NC(=O)C1CN(CCCCC(c2ccc(F)cc2)c2ccc(F)cc2)CCN1CC(=O)Nc1c(Cl)cc(N)cc1Cl (centres unmarked)	SARS-CoV-2	viral replication, high-content imaging screen		cell-based		EC50	> 100 µM
O=C(/C=C/c1ccc(O)c(O)c1/C=C/c1ccc(O)c(O)c1)O[C@H](Cc1ccc(O)c(O)c1)C(=O)O	SARS-CoV-2	viral replication	Vero E6	100 µM		CPE inhibition	90%
Nc1ncnc2c1ncn2[C@@H]1O[C@@H]2COP(=O)(O)O[C@H]3[C@@H](O)[C@H](n4cnc5c(=O)[nH]cnc54)O[C@@H]3COP(=O)(O)O[C@H]2[C@H]1O	Chikungunya virus	upregulated Reactome pathway, RNA sequencing, refers to: Cell Cycle (R-HSA-1640170)	HFF-1		baseline: CHIKV-infected untreated	fold enrichment	1.73
c1ccc(CN(CCN(Cc2ccccn2)Cc2ccccn2)Cc2ccccn2)nc1	SARS-CoV-2	viral replication, GFP plate reader screen	BetaCov/Belgium/GHB-03021/2020	cell-based		EC50	> 3.09 µM
COc1cc2c(cc1OCC1CC1)NC(=O)C21CCN(c2cc(NC3CC3)ncn2)CC1	SARS-CoV-2	cytopathic effect	USA_WA1/2020	retest, 8-point, duplicates		maximum response	57.5%
CC1c2ccccc2C(CCCN(C)C)c2cc(C(F)(F)F)ccc21 (centres unmarked)	SARS-CoV-2	viral replication, GFP plate reader screen	BetaCov/Belgium/GHB-03021/2020	cell-based		EC50	> 100 µM
CC(C)(C)NCc1ccc(Nc2ccnc3cc(Cl)ccc23)cc1O	SARS-CoV-2	cytopathic effect	USA_WA1/2020	retest, 8-point, duplicates		maximum response	70.1%
NC(=O)c1nc(F)c[nH]c1=O	yellow fever virus	viral replication	BHK-21	72 h		EC50	24 µM
COc1ccc(C[C@@H]2NC(=O)[C@@H](NC(=O)Cc3ccc4c(c3)OCO4)Cc3ccc(cc3)OC[C@H](CC(C)C)NC(=O)CN(CC3CC3)C(=O)[C@@H](C)NC2=O)cc1	Lassa mammarenavirus	viral replication	Huh-7	10 µM, 72 h		remaining activity	31%
CCCCN(C)CCNC(=O)c1cc(-c2ccc(Cl)s2)nc2ccccc12	SARS-CoV-2	cytopathic effect	USA_WA1/2020	round 1, 5-point		maximum response	75.5%

Repeated from above:
SMILES	organism	assay	test system	setting	scale	measurement	value
NC(=O)c1nc(F)c[nH]c1=O	yellow fever virus	viral replication	BHK-21	72 h		EC50	24 µM
COc1ccc2cc1Oc1ccc(cc1)C[C@H]1c3c(cc4c(c3Oc3cc5c(cc3OC)CCN(C)[C@@H]5C2)OCO4)CCN1C	African swine fever virus			concentration not given		p72 mRNA and protein	inhibited
CNC(=O)[C@@H](NC(=O)[C@H](CC(C)C)[C@H](O)C(=O)NO)C(C)(C)C	Daboia russelii		C2C12	100 µM, with: Daboia russelii venom PB	baseline: venom alone	viability difference	-18.7%
COc1ccc(C[C@@H]2NC(=O)[C@@H](NC(=O)Cc3ccc4c(c3)OCO4)Cc3ccc(cc3)OC[C@H](CC(C)C)NC(=O)CN(CC3CC3)C(=O)[C@@H](C)NC2=O)cc1	Lassa mammarenavirus	viral replication	Huh-7	10 µM, 72 h		remaining activity	31%
CNCc1ccc(C)c(NC(=O)c2ccc(Nc3nc(-c4ccccc4)c4ccccc4n3)cc2)c1	SARS-CoV-2	viral replication, GFP plate reader screen		cell-based		EC50	2.95 µM
COc1cc2c(cc1OCC1CC1)NC(=O)C21CCN(c2cc(NC3CC3)ncn2)CC1	SARS-CoV-2	cytopathic effect	USA_WA1/2020	retest, 8-point, duplicates		maximum response	57.5%
